Measured values of several laboratories.
Every numbered part comes from another study and shows a few of its results, in no order. Substitutions count along the parent as printed.
Sequence of UniProt Q9SKN5 (whole entry, looked up): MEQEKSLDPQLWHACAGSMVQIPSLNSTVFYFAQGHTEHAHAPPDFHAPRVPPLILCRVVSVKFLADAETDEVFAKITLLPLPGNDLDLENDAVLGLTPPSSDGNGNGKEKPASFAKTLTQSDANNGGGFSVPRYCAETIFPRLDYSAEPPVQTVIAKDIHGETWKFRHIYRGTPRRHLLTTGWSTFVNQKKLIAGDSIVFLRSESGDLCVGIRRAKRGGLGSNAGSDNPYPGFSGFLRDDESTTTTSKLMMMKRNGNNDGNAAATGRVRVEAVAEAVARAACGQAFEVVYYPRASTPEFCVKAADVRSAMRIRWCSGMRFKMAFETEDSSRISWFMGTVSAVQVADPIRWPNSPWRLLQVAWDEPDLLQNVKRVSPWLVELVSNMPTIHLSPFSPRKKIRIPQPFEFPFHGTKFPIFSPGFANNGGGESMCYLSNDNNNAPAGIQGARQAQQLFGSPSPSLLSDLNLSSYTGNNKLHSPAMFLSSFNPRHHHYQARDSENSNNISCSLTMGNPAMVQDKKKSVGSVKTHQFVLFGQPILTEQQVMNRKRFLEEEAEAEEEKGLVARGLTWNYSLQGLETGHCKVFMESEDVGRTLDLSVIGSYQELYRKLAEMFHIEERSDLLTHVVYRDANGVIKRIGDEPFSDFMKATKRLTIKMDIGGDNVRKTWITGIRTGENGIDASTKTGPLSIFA
Sequence of UniProt Q9ZSY8 (whole entry, looked up): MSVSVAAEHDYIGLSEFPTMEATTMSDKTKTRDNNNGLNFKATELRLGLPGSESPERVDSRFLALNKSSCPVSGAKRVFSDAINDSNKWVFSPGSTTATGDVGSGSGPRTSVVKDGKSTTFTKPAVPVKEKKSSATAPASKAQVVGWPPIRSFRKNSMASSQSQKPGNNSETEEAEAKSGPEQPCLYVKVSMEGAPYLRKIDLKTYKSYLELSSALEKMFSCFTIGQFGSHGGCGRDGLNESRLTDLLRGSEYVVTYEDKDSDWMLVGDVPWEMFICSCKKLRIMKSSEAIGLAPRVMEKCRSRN
Sequence of UniProt Q9C8N7 (whole entry, looked up): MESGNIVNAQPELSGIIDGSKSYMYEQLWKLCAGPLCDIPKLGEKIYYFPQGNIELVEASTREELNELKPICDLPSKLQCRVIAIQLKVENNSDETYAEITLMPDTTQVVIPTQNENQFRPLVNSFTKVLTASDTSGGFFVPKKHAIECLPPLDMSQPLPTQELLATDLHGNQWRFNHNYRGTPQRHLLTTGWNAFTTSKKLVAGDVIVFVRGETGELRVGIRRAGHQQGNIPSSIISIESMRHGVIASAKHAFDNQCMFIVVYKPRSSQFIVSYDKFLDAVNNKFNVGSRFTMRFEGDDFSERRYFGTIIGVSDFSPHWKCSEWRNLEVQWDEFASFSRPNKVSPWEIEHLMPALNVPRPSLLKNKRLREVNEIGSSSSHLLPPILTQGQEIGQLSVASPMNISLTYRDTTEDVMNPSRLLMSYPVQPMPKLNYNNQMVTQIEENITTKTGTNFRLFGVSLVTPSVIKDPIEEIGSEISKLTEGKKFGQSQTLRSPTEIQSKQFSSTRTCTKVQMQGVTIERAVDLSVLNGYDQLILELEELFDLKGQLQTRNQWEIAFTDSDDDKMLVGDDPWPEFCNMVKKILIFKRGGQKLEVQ
Sequence of UniProt Q8L7G0 (whole entry, looked up): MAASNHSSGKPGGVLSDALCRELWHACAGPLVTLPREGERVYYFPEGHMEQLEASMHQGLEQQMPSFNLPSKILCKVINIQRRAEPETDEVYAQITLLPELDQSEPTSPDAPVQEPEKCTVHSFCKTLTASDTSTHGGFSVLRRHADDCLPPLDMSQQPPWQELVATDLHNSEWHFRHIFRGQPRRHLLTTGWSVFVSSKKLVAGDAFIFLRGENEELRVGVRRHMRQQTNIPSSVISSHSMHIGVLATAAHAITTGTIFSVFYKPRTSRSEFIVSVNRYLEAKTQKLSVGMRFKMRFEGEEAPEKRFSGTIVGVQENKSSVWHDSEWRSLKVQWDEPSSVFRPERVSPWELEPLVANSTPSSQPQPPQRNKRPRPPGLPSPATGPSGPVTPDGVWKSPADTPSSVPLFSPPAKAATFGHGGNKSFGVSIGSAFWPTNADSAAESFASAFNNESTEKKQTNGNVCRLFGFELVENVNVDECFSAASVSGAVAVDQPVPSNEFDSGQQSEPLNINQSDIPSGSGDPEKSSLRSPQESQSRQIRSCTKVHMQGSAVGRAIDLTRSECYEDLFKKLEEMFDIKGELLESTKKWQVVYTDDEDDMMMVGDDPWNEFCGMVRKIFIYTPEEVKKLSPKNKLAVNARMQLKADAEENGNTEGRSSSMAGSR
Sequence of UniProt Q38824 (whole entry, looked up): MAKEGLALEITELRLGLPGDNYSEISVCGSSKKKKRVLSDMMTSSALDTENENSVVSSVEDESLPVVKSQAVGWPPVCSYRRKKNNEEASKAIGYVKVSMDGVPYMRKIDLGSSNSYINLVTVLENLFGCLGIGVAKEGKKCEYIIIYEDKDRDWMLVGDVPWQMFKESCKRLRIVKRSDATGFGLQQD
Sequence of UniProt Q38825 (whole entry, looked up): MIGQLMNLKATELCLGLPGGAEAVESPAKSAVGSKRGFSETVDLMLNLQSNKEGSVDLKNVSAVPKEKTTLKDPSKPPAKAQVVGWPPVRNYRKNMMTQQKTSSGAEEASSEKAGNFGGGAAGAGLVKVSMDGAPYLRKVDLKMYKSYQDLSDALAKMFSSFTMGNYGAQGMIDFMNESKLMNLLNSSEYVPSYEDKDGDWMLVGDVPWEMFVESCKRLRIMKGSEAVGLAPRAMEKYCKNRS

Block 1 — target: CCNA1, cyclin fold, Cln2 fusion (human); technique: yeast growth competition, sequencing; medium: yeast; notes: weak parent motif; baseline: not given; reading: higher = stronger binding
Starting sequence: GMNC docking peptide (human); KNAKRNLSSEFAN; partner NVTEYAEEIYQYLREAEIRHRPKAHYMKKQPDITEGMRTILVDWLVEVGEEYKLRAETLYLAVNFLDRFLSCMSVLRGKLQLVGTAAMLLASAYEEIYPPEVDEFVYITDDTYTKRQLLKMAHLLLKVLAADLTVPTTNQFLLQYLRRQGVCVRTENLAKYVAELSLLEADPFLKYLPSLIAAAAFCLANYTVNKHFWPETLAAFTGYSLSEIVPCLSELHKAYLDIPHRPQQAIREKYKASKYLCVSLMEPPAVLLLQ
| Substitution | normalised enrichment score |
| --- | --- |
| K4L | 0.61 |
| E10C | 0.106 |
| L7C | 0.135 |
| N2L | 0.511 |
| N6P | 0.112 |
| F11N | -0.285 |
| R5I | 0.0567 |
| R5E | 0.0461 |
| A12C | 0.517 |
| K4P | 0.21 |
| N6L | -0.111 |
| L7G | 0.151 |
| F11C | -0.0446 |
| A12G | 0.226 |
| N2S | 0.794 |
| A12P | 0.687 |
| A12L | 0.227 |
| L7F | 0.16 |
| F11I | 0.0781 |
| N2M | 0.212 |
| A3W | 0.432 |

Block 2 — technique: protein binding microarray; form: double-stranded DNA, one strand shown; medium: in vitro; tested at: not given; baseline: not given; reading: higher = stronger binding
Target: Histone acetyltransferase KAT6A, winged helix 1, GST fusion (KAT6A, Homo sapiens, UniProt Q92794, residues 1-85)
Notes: 8-mer, flanks averaged, mean of 2 arrays, mostly near background
Residues (chain): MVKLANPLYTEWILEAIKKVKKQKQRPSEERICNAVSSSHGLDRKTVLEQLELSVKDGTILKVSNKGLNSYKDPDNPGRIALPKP
| Strand | E-score |
| --- | --- |
| AGTGCAGA | -0.0923 |
| AAAACCCT | -0.119 |
| AGTGTGCG | 0.0176 |
| AGTATAAT | -0.0711 |
| GATTTCGC | 0.0734 |
| AGCACCAG | -0.252 |
| CCTACAAA | -0.0724 |
| CGACCATA | 0.0467 |
| ATATGCTG | -0.138 |
| AGATCAGC | 0.0794 |
| TGCCTAAA | -0.227 |
| ATGTCAAG | -0.158 |
| AGGCTACA | -0.188 |
| CGCGCCCC | 0.404 |
| CCTGCTCG | -0.045 |
| GTACTCAA | -0.135 |
| CGACTAAA | -0.168 |
| AGGCAAAC | -0.15 |
| AGTTAGGC | -0.158 |

Block 3 — technique: DHFR PCA, deep sequencing; medium: yeast; together with: (+)-ABA 2500 µM; baseline: wild-type fitted maximum; reading: higher = stronger binding
Target: ABI1, truncated, D143A, DHFR fusion (Arabidopsis thaliana)
Notes: methotrexate growth selection, single substitutions
Starting sequence: PYL1, truncated, DHFR fusion (Arabidopsis thaliana); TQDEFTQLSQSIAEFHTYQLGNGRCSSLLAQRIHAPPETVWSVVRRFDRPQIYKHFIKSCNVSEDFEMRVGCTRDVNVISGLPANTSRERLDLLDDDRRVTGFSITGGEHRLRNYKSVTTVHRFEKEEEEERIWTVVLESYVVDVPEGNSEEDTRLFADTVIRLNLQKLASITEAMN; partner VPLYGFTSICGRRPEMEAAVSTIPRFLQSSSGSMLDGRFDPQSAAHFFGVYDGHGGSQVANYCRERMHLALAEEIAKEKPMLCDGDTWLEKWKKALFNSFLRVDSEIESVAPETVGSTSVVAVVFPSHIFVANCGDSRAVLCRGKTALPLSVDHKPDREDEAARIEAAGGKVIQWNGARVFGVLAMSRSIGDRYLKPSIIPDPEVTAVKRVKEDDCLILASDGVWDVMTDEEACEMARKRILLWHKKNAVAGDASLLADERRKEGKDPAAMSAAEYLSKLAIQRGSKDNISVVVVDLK
| Substitution | relative binding score |
| --- | --- |
| V78K | -1.44% |
| L169C | 72.1% |
| E130W | 96% |
| L93V | 104% |
| A35C | 100% |
| A84D | 56.2% |
| F103I | 93% |
| E64P | 93.1% |
| N149Q | 84.4% |
| N177F | 88.5% |
| Q7K | 104% |
| C25Q | 86.1% |
| V161T | 77.8% |
| V137T | 73.8% |
| G108N | 85.6% |
| N85A | 97.2% |
| S26K | 94.6% |
| M68C | 91.8% |

Block 4 — Molecule: B1 (IAA3); technique: two-hybrid; baseline: out of 4 tests; reading: higher = firmer interaction
B1: IAA3 (Arabidopsis thaliana, UniProt Q38822); chain MDEFVNLKETELRLGLPGTDNVCEAKERVSCCNNNNKRVLSTDTEKEIESSSRKTETSPPRKAQIVGWPPVRSYRKNNIQSKKNESEHEGQGIYVKVSMDGAPYLRKIDLSCYKGYSELLKALEVMFKFSVGEYFERDGYKGSDFVPTYEDKDGDWMLIGDVPWEMFICTCKRLRIMKGSEAKGLGCGV
| partner | positive tests |
| --- | --- |
| IAA7 (Arabidopsis thaliana, UniProt Q38825) | 1 |
| IAA27 (Arabidopsis thaliana, UniProt Q9ZSY8) | 4 |
| IAA6 (Arabidopsis thaliana, UniProt Q38824) | 0 |
| ARF1 538-665 (Arabidopsis thaliana, UniProt Q8L7G0) | 0 |
| ARF10 575-693 (Arabidopsis thaliana, UniProt Q9SKN5) | 1 |
| ARF22 498-598 (Arabidopsis thaliana, UniProt Q9C8N7) | 0 |

Block 5 — target: BATF, bZIP domain (human); technique: DHFR protein complementation; medium: yeast; baseline: wild-type JUN-FOS pair; reading: higher = stronger binding
Notes: single substitutions, most at no-binding floor
Starting sequence: JUN, bZIP domain (human); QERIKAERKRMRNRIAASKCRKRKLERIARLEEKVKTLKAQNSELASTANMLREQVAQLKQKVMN; partner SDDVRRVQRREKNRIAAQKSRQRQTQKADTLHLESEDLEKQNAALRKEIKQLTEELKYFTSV
| Substitution | binding fitness [natural log] |
| --- | --- |
| K36Y | -0.131 |
| L31C | -0.212 |
| R53D | -1.09 |
| A49G | -0.73 |
| E32Y | -0.25 |
| K34G | -0.18 |
| A57W | -0.0894 |
| T37C | 0.0149 |
| K34F | -0.184 |
| A49D | -1.36 |
| R53Q | -0.337 |
| L45R | -1.18 |
| Q41N | -0.269 |
| Q55C | -0.169 |
| A29I | -0.0895 |
| T48D | -0.202 |
| L52N | -1.04 |
| A29P | -0.199 |
| S47V | 0.1 |
| T37Q | 0.147 |
| A40Y | -0.159 |
| R53N | -0.548 |
| L31Q | -0.152 |
| L59P | -0.909 |

For quick reference, copied from above (block 5):
| Substitution | binding fitness [natural log] |
| --- | --- |
| L45R | -1.18 |
| L31Q | -0.152 |
| K34F | -0.184 |
| L31C | -0.212 |
| A40Y | -0.159 |
| R53D | -1.09 |
| S47V | 0.1 |
| A29P | -0.199 |
| K36Y | -0.131 |
| E32Y | -0.25 |
| K34G | -0.18 |
| A49D | -1.36 |
| A57W | -0.0894 |
